# Assay results collected from several papers.
# Parts stem from different laboratories: compare values within a part only.

# Series 1 — technique: aptamer microarray, sandwich; form: DNA with 2'F-ANA; sample: in vitro; tested at: 200 nM; added: Cy3 exosite-II aptamer, 400 nM; reading: higher = stronger binding; oligonucleotide: GGTTGGTGTGGTTGG
# Target: Prothrombin, mature alpha-thrombin (F2, Homo sapiens, UniProt P00734)
# Notes: whole 15-mer aptamer, many near background
Modification,mean fluorescence intensity [a.u.]
2'F-ANA at 1 2 11 15,148
2'F-ANA at 2 3 10 14 15,341
2'F-ANA at 1 2 3 4 5 6 10 11 14,48
2'F-ANA at 2 4 5 7 8 10,67.3
2'F-ANA at 2 3 7 8 9 11 15,827
2'F-ANA at 1 2 3 6 10 11 12 13 15,75.8

# Series 2 — technique: protein-binding microarray; form: double-stranded DNA, one strand shown; sample: in vitro; tested at: 940 nM top; notes: 60-bp whole probe; added: salmon DNA 0.4 mg/ml; baseline: random background probes; reading: higher = stronger binding; constant ends, left off below: GCCTAGCAC … GTCTTGATTCGCTTGACGCTGCTG
# Target: Interferon regulatory factor 5, full length, phosphomimetic (IRF5, Homo sapiens, UniProt Q13568-2, residues 1-514, S451D/S453D/S456D/S462D)
Oligonucleotide,fitted relative affinity
GACGAACTGAGTATCGTGACGTGCTAG,0.181 z-score
GACGGTTTCGACATTGGGGACGTGCTA,7.45 z-score
TTAGGACTGCTACTGCTCTAGTGCTAG,-0.334 z-score
TTAGGTCTAGGACTGGGTTAGTGCTAG,-0.356 z-score
CTAATATTCTGCTTTGCAATGTGCTAG,0.152 z-score
GACGGTTTCGACACTGGGGAAGTGCTA,7.21 z-score
TTCGATTCCAGTTTCGATTAGTGCTAG,9.14 z-score

# Series 3 — technique: protein binding microarray; form: double-stranded DNA, one strand shown; sample: in vitro; tested at: not given; baseline: not given; reading: higher = stronger binding
# Target: Histone acetyltransferase KAT6A, winged helix 1, GST fusion (KAT6A, Homo sapiens, UniProt Q92794, residues 1-85)
# Notes: 8-mer, flanks averaged, mean of 2 arrays, mostly near background
# Target sequence (chain): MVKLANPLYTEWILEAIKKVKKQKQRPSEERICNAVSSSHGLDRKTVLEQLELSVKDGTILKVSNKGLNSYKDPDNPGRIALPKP
Oligonucleotide,E-score
AAGTACTA,-0.0217
CGCCAGCC,0.23
AATGGAAT,-0.128
AGTAGCAT,-0.0556
ATCATGCG,0.115
AAAAGAGG,-0.175
ATTGCTGA,-0.135
GACTGATA,-0.158

# Further values, each from its own experiment
Substance,target,test,test system,conditions,how to read,endpoint,result
"PhoQ, residues 284 288 289 292 302 303 TNASYF","PhoP, residues 12 14 15 18 19 NQGLL (Escherichia coli, UniProt P23836)","Sort-seq, measured: YFP reporter",E. coli,"PhoQ-PhoP variant library, added: 10 µM Mg2+","baseline: high Mg2+ state, higher = stronger signaling",fold induction,5.01

# For quick reference, copied from above (series 2):
Oligonucleotide,fitted relative affinity
GACGGTTTCGACACTGGGGAAGTGCTA,7.21 z-score
TTCGATTCCAGTTTCGATTAGTGCTAG,9.14 z-score
